Measurements of several laboratories.
A part holds a random share of what one study measured. Changes are numbered by the printed parent chain.

Set 1 — organism: Saccharomyces cerevisiae; read-out: binding; technique: yeast competitive growth sequencing; form: peptide; notes: cyclin B2-Cln2 chimera; direction: direction not given; endpoint: enrichment score
PARRRLRLSVDEVSSP: -0.129
VLVRTSACRSLFGPVD: -0.0227
DTERAHSTLDEDLERW: 0.87
KPKPVKPVTFSTGIKM: 1.19
SAVPLILPQAPSGPSY: 1.16
IVLICAKRSLCAAFSV: -1.31
KPHVSDEEEEEPPFYH: 1.24
GLPDFVFQQQPVESEA: 0.525
FQDSGYNELKSCSFDN: 0.859
PAKRRLELGE: 0.631

Set 2 — technique: RNA Bind-n-Seq; form: RNA; sample: in vitro; tested at: 365 nM; relative to: no-protein control; direction: higher = stronger binding; endpoint: RBNS enrichment (R)
Target: RNA binding protein fox-1 homolog 2, RRM domain, GST-SBP tag (RBFOX2, Homo sapiens, UniProt O43251-10, residues 100-194)
Notes: natural RNA segment, single round, ends assumed
Residues (chain): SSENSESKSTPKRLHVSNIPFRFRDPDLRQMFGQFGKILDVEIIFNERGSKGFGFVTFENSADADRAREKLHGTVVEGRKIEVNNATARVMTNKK
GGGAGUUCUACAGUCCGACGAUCCGCGGGCAGCCAGGCCCAGCCCCCGCCCGAGCUCAGGCUGCCCCUCUCCUUCCCCGGCUCGCAGGAGAGCAGAGCAGAGAACUGUGGGGAACGCUGUGCUGUUUGUAUUUUGGAAUUCUCGGGUGCCAA: 0.578
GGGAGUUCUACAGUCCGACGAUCAGGGAAAUUGAAAAAGACAUGUAGAAUUUUGUUAGGUCUUCUGCUAAGCACGAAUAAGAUAUCUGCUUACAUUAAUUUUUAUAAAGUCAUUCAGUCAGAAUUUAGGAUUCUGGAAUUCUCGGGUGCCAA: 1.62
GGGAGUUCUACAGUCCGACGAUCUCCUUGCUCUCAAAACAAAACAAUAUAAUCUAUCAAAGGUGUUUUACUCAGUGUUCUAAUUUUUAAAAAAUUUUAUCUGCAUAUUUGCAUCAAAUAUUUAUGUGUAAAAUUGGAAUUCUCGGGUGCCAA: 2.12
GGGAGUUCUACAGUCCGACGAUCUAAUUGUUUGAAAUUUUUCUAGAGCCAAAGAAGCUCUUUAAAGAAGUUGUUUCUUCCAAAGAACAAAGCCAGGUUAAUGACAUUCAAUUCUAAAUGAUACAUUGGAAUUGUGGAAUUCUCGGGUGCCAA: 0.25
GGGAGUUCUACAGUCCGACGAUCUUCACUUUCCAAAGAAUUCAUCUUCCAGCCAGUCCCGUUGUGUCCUUGCUUGUCUGCAUUUAUUAGUGGUAAUAUUCUUUUACGUAUAAUAAAUUUUUAUACCCAAGCCUUGGAAUUCUCGGGUGCCAA: 0.473
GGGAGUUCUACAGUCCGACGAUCGAAGCCAGGCAGCAGCUACAGGAGUUAUCAUCUGUGUCUUUUACCAUGAUUUGAUUUGUGUUCUCAAAGCAAGUGUGCCCUUUGGUUCUGCAGAGCAGGCCCACUUCCUGUGGAAUUCUCGGGUGCCAA: 0.18
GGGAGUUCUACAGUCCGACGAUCAACCCAAGACCGCAGACUGGGUGUAAGGGAUGCCCGGAACACCCUGACCAGGCCCCUCCCCUAAGACUUCUUGGAUAUUUCCCAGGAGAAUCCCACAUUCACCGCCAAACUGGAAUUCUCGGGUGCCAA: 0.494
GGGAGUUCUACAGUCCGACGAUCAUGUGGUAUGUCACUGCUGAAGCCUUUUCCUGUUUUAGUAAUAUCUUAGGCACUAUUGUCUUUUGUCUUCCAGAGUAACAUAUCUGGGCCCACCUUUCUUGCACACUGUGUGGAAUUCUCGGGUGCCAA: 1.45
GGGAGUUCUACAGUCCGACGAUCCUUCUAAGAACCGUUUUCCCAAAUGGGUUCCCAUAUUCAUGCACCCAAAGCAAUGGUCCCCAAGCACUGAUGAAAACUAAUAUGCAUUUCCCAAAGACCCACACUAUGUAUGGAAUUCUCGGGUGCCAA: 0.585
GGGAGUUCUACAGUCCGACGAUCCAGGGCAAAUGUGAAUUUUCUUUUGAUUUGGGAGAUUGUUCACAGGAAGUAGUCCUCCCCUCUCAUGUCCUCCUAUUGAUUGUUUACAAUAUUUGUACAUCUAUGCAAAAUGGAAUUCUCGGGUGCCAA: 0.54
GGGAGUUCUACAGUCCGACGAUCGAGAAUAAAGAGCAGUCGCAAUGAAGCUGCCCACCCUCGGCACUCUGCAGCUUUAGUUACUGAUCUAGAAGCCCUGUAGUGUGAAGCGGCCGCUGCAGGCCAUUGUACACUGGAAUUCUCGGGUGCCAA: 0.332
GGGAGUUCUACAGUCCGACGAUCAAAAAUAAAAUCUUUACCUGUCGAAUUGUUGCUGCAGAUGAUUGUUGUGGAAAAUCUGGAUCAUUGACCUCUGUGCUUUCAUUCCUAGAGAUGUUUUAUAGUUACAUGAGUGGAAUUCUCGGGUGCCAA: 0.47

Set 3 — technique: DHFR PCA, deep sequencing; sample: yeast; added: (+)-ABA 0.39 µM; relative to: wild-type fitted maximum; direction: higher = stronger binding; endpoint: relative binding score
Target: ABI1, truncated, D143A, DHFR fusion (Arabidopsis thaliana)
Notes: methotrexate growth selection, single substitutions
Starting sequence: PYL1, truncated, DHFR fusion (Arabidopsis thaliana); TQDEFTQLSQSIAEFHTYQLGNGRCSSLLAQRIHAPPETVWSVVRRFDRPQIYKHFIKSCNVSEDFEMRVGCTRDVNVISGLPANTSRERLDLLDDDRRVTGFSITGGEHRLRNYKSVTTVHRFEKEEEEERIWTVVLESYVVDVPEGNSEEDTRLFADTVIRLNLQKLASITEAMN
D153W: -1.89%
A35S: 8.21%
N61L: 35.9%
V44H: -10.3%
K58G: -0.624%
G23C: 4.44%
F5R: 23.8%
H16E: -0.851%
D159W: -13.1%
R90F: -17.4%
Y18W: 32%
F124N: -4.88%
V143E: -1.49%
L20T: 62.6%
V161D: -3.85%
R163Q: 33.8%
D3K: 27.8%

Set 4 — technique: protein-binding microarray; form: double-stranded DNA, one strand shown; sample: in vitro; tested at: 250 nM; notes: 60-bp whole probe; added: salmon DNA 0.4 mg/ml; relative to: random background probes; direction: higher = stronger binding; endpoint: log fluorescence; constant ends, left off below: GCCTAGCAC … GTCTTGATTCGCTTGACGCTGCTG
Target: Interferon regulatory factor 7, full length, phosphomimetic (IRF7, Homo sapiens, UniProt Q92985, residues 1-503, S101K/S471D/S472D/S475D/S476D/S477D/S483D/S484D/S487D)
Target sequence (chain): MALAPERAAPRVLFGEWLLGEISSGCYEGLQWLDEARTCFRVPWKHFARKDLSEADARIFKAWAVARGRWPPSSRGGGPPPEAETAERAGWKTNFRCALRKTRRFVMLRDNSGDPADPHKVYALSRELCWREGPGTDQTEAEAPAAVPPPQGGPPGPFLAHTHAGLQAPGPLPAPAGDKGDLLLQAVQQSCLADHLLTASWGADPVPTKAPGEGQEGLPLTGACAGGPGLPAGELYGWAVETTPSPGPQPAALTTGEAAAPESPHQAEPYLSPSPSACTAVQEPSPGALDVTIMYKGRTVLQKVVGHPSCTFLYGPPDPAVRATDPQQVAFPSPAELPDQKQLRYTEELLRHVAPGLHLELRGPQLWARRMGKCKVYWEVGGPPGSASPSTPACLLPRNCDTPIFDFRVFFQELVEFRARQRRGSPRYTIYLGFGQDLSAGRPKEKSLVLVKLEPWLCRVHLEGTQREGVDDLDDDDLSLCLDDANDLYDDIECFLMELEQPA
GACGGTGTCCTACTGCTGACGTGCTAG: -0.45 z-score
TTAGGGTTCGGTTTCGGTTAGTGCTAG: 10.6 z-score
GACGGACTTCTTATCCTGACGTGCTAG: -0.12 z-score
GCTGACACTAACACAGTGGTGTGCTAG: -0.913 z-score
TGCCTTTTTTTTTTTTTCTGGTGCTAG: 1.05 z-score
TTAGGTATCGGGTTTCGCTTAGTGCTA: 5.51 z-score
TCACCTCTTTCACTGGTACTGTGCTAG: 0.821 z-score
TTAGGACTGGGTCTTGGTTAGTGCTAG: -0.32 z-score
TTAGATTTCGGGGTTCGATTAGTGCTA: 0.982 z-score
GACGGTCTCCTTCCCCTGACGTGCTAG: 0.153 z-score
GTAGGTTCCCTTTTCCTTTAGTGCTAG: 3.4 z-score
TTAGGTCTCGGTTTCGGTTGGTGCTAG: 11.1 z-score
TTAGGTCTCCTTCTCCTTTAGTGCTAG: 0.265 z-score
TAAGGTTTCCAATCAGCCCCGTGCTAG: 3.19 z-score
GACGGCTTCGGTATCGGGACGTGCTAG: -0.11 z-score
